Published values gathered from unrelated publications.
Every numbered part comes from another study and shows a few of its results, in no order. Positions count from the first letter of the parent shown.

Study 1 — target: CEP164, C-terminal peptide (human); technique: DHFR complementation, deep sequencing; medium: yeast; relative to: wild type; direction: higher = weaker binding; endpoint: binding free energy change
Setting: single substitutions, model-inferred values
Parent: PDZK1, PDZ domain 2 (human); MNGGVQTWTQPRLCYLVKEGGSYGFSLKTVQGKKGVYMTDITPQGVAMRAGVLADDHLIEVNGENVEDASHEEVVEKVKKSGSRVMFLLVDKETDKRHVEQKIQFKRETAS; partner HNRVKVYRF
E93K: -0.184 kcal/mol
K18V: 0.955 kcal/mol
G3H: 0.00476 kcal/mol
G24H: 0.857 kcal/mol
R12K: 0.0722 kcal/mol
Y23D: 1.29 kcal/mol
N65A: 0.281 kcal/mol
Y37C: 0.483 kcal/mol
F105V: -0.166 kcal/mol
D56Q: 0.225 kcal/mol
L88H: 0.195 kcal/mol
A54D: -0.232 kcal/mol
T7E: -0.0938 kcal/mol
Q10S: 0.0465 kcal/mol
H57V: -0.656 kcal/mol
S111K: 0.113 kcal/mol
V85M: 1.12 kcal/mol
G3T: -0.0528 kcal/mol
D56P: 0.867 kcal/mol
E67R: 0.189 kcal/mol
L13N: 0.0981 kcal/mol
T7M: -0.0976 kcal/mol
G51L: 1.1 kcal/mol
A50E: 0.279 kcal/mol
V17Q: -0.0661 kcal/mol

Study 2 — technique: protein-binding microarray; form: double-stranded DNA, one strand shown; medium: in vitro; concentration: 2540 nM top; setting: 60-bp whole probe; added: salmon DNA 0.4 mg/ml; relative to: random background probes; direction: higher = stronger binding; endpoint: fitted relative affinity; all sequences stand within: GCCTAGCAC … GTCTTGATTCGCTTGACGCTGCTG
Target: Interferon regulatory factor 3, full length, phosphomimetic (IRF3, Homo sapiens, UniProt Q14653, residues 1-427, S386D/S396D/S398D/S402D/T404D/S405D)
Residues (chain): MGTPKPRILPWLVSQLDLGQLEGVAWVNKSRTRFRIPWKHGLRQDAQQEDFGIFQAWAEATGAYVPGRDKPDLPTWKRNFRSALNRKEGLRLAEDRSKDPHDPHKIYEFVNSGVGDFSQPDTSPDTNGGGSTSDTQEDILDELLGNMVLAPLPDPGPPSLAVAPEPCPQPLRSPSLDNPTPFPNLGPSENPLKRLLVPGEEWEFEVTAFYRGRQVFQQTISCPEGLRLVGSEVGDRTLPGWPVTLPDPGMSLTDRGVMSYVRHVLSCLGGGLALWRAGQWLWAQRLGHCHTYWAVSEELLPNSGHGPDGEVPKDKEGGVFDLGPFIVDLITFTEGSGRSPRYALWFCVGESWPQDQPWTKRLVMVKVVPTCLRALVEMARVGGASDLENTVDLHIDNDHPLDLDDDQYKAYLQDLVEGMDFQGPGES
TCAGAAATCTCAATGGGACTGTGCTAG: -0.19 z-score
TCACATCTCACTCTAATACTGTGCTAG: 1.22 z-score
TTAGGTCTCAGTTTCGATTAGTGCTAG: 4.31 z-score
GACGAATCCAGTTTCGAGACGTGCTAG: 2.59 z-score
ACCTATGTGTACCACTAGACGTGCTAG: 0.716 z-score
CTAGATCTCAGTTTCGATTAGTGCTAG: 3.5 z-score
TACTACATATCACCTCAATCGTGCTAG: 0.5 z-score
TTAGAACTGCTTATCCTTTAGTGCTAG: -0.102 z-score
GGCGGACTGGGGTATCGGGACGTGCTA: -0.777 z-score
TTAGGACTGGGACTGAGTTAGTGCTAG: -0.944 z-score
GACGGTATCGACACTGGGGAAGTGCTA: 0.529 z-score
TTAGGTCTCCTAATGCTTTAGTGCTAG: 1.6 z-score
GAAGGTCTCCTTCTCCTGACGTGCTAG: 3.79 z-score
TCACATCTAGTTCTGCTACTGTGCTAG: 0.701 z-score
AAACAAGTTTCACGTCTTATAGTGCTA: 1.68 z-score
CATCGTAAGCAAAAATGATTGTGCTAG: -0.00449 z-score
TTCGGTTTCCTACTGCTTTAGTGCTAG: 6.41 z-score
GTCGGTTTCCTTTTCCTGACGTGCTAG: 12.6 z-score
TTAGGACGGGGTCTCGGTTAGTGCTAG: -0.704 z-score

Study 3 — target: CCNA1, cyclin fold, Cln2 fusion (human); technique: yeast growth competition, sequencing; medium: yeast; setting: weak parent motif; relative to: not given; direction: higher = stronger binding; endpoint: normalised enrichment score
Parent: CUX1 docking peptide (human); SRIRRELFIEEIQ; partner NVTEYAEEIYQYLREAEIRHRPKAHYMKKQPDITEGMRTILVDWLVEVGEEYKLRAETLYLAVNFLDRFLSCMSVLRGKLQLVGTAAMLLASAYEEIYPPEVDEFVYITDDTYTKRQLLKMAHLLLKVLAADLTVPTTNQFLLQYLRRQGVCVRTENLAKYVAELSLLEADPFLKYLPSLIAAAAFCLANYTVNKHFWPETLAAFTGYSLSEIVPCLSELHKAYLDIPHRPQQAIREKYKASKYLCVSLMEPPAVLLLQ
SRIRRELFIEEAQ [I12A]: 0.213
SRARRELFIEEIQ [I3A]: 0.263
SRIRKELFIEEIQ [R5K]: 0.81
SRIRKELLIEEIQ [R5K F8L]: 0.139
SAIRRELFIEEIQ [R2A]: 0.188
SRIRAEAFIEEIQ [R5A L7A]: 0.116
SRIRRELFAEEIQ [I9A]: 0.223
SRIRRELFIEAIQ [E11A]: 0.821
SRIRRELFIAEIQ [E10A]: 0.582
ARIRRELFIEEIQ [S1A]: 0.355

Study 4 — target: CREB3L3, bZIP domain (human); technique: DHFR protein complementation; medium: yeast; relative to: wild-type JUN-FOS pair; direction: higher = stronger binding; endpoint: binding fitness
Setting: single substitutions, most at no-binding floor
Parent: JUN, bZIP domain (human); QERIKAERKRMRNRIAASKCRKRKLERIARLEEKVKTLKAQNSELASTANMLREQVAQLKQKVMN; partner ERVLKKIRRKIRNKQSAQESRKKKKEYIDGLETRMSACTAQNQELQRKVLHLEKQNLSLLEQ
R53P: -1.51 natural log
Q55V: -1.52 natural log
A29I: -1.48 natural log
S47L: -1.47 natural log
L38Q: -1.56 natural log
L45T: -1.51 natural log
R53H: -1.58 natural log
K36A: -1.41 natural log
M51I: -1.65 natural log
A49R: -1.38 natural log
V35F: -1.37 natural log
L59P: -1.44 natural log
V35P: -1.43 natural log
K36S: -1.34 natural log

Study 5 — technique: Sort-seq; measured: YFP reporter; medium: E. coli; setting: PhoQ-PhoP variant library; added: 10 µM Mg2+; relative to: high Mg2+ state; direction: higher = stronger signaling; endpoint: fold induction
Molecule: PhoQ, residues 284 288 289 292 302 303 NLGVHL
PhoP, residues 12 14 15 18 19 QYFSL (Escherichia coli, UniProt P23836): 7.91
PhoP, residues 12 14 15 18 19 NYFRM (Escherichia coli, UniProt P23836): 3.33
PhoP, residues 12 14 15 18 19 TQALL (Escherichia coli, UniProt P23836): 8.26

Study 6 — technique: RNA Bind-n-Seq; form: RNA; medium: in vitro; concentration: not given; relative to: input RNA pool; direction: higher = stronger binding; endpoint: bound/input enrichment
Target: RING finger protein unkempt homolog, zinc fingers 1-6, GST-SBP tag (UNK, Homo sapiens, UniProt Q9C0B0, residues 30-357)
Setting: RNA with constant flanks, human and mouse sites, ends assumed
All sequences stand within: GGGAGUUCUACAGUCCGACGAUC … CAACAGAGGAUUGAGCAUCA
Construct (chain): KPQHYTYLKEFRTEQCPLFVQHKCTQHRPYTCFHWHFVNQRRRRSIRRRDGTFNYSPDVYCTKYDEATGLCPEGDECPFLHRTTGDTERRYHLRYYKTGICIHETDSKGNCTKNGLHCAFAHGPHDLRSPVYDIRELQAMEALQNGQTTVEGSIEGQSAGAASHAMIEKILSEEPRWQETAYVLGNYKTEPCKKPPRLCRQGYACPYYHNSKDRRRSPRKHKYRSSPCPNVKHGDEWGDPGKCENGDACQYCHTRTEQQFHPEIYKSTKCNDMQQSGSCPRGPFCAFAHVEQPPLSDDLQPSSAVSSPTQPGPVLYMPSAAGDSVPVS
AAGAAGAGAAGGAAGAUGAAAUCUCAUUAGAAGAUCUAAUUGAAAGAGAGCGUUCUGCCCUAGGUCCAAAUGUUACCAAAAUCACUCUAGAGUCUUUUCUCGCGUGGAAGAAGAGGAAAA: 3.88 ratio
CAGAGAACUUUACUGAAGAAAGUCUGGAAAGUCUGGCGUUCCGUAGUGCAAAAGCAGUGGAAAGAUGUGGUAGAAAGAGCUUGUCAAGCAAGAGCUGAAGAAGUUUGUAUCCAGAUUUCC: 0.149 ratio
GCCAAGGCCAUCCAGCUGAACAGCAACAGCGUCCAGGCUCUGUUACUCAAGGGGGCGGCGCUUAGGAACAUGGGGAGGGUCCAGGAAGCCAUCAUACACUUUCGGGAGGCCAUCAGGCUU: 0.0634 ratio
UAUACUUUAUUGAUCAACAUCCUUCAUAGUGAAGACCUAGGAAAGGACGUUGAAUUUGAAGUUGUUGGUGAUGCCCCGGAAAAAGUGGGGCCCAAACAAGCUGAAGAUGCUGCCAAAAGC: 0.173 ratio
UUUACCUGAAUUUGGAAAUGGGAUUUUGUCAACAAUGCAUUUAUAUUUGGGGACGAUAAAUGAACAUUACAGAGGGCCAUCAUAAAUAAAAUCAGGAUAGCAAUAUACCUUUUUAAAAGA: 0.955 ratio
AUAUCUUCAGAAGAGGGAGAGACAGAAGCCAAUAACCCCAAGAAGUUGUCUGAUUUUGGAAUUAGAAACGGCAGCCGGCUUCAAGCAGACGACUUCCUCCAGGACUAUACUUUGCUGAUC: 0.26 ratio
AAAGACAAAGAUGAACUUCGAGCUCAGAGAAGAAGGGAAAGGCCAAAGACACCACCUAGUAAUCUCUCUCCCAUUGAAGAUGCAUCUCCGACAGAAGAGUUACGUCAGGCUGCAGAAAUG: 0.2 ratio
UUAGCUAGUGGAGCCACUUUCUGUAUUGUUACAUGGACAUAUGUAGCAACACAAGUCGGAAUAGAAUGGAACCUGUCCCCUGUUGGCAGAGUUACCCCAAAGGAAUGGAGGAAUCAGUAA: 0.244 ratio
